Measured values gathered from unrelated publications.
Compare with care: the assays were run in different laboratories. Several values in a cell are separate wells, animals, samples, runs or records.

`NC(=O)c1ccc(-c2ccccc2Cl)c2c3c([nH]c12)CCC(N)C3` (centres unmarked) has an IC50 of 0.0258 µM (DOHH-2; cell growth or viability; 96 h).
With `COc1cc(N(C)CCN(C)C)c(NC(=O)/C=C/c2ccc(-c3ccccc3)cc2)cc1Nc1nccc(-c2cn(C)c3ccccc23)n1` the inhibition was 69.9% (NCI-H1975; cell growth or viability, MTT; 0.5 µM, 72 h).
For `O=C(C[Se]C(=O)c1ccccc1Nc1ccccc1)Nc1cccc(C(F)(F)F)c1`, “mean growth percent” read -86.3% (NCI60 CNS subpanel; cell growth; 10 µM, 48 h, one-dose).
`Cc1ccc(C(=O)/C=C/c2ccccc2)s1` — result for “mean growth inhibition”: 3.8% (NSCLC panel (nine cell lines); 10 µM).
`O=C(N1CCCC1)n1cc(-c2ccc(-c3ccccc3)cc2)nn1` has an SILAC ratio of 1.22 and 1.09 and 0.96 and 1.05 (mouse T cells; N-terminal labeling proteomics, refers to: S100a6 N-terminal peptide; 0.001 µM, 6 h; baseline: DMSO).
`CC(C)c1ccc(N(C)c2ccc3c(c2)OCC[C@H]3CNc2cnccc2C(=O)O)cc1` has an IC50 of at least 10 µM (HS852T; cell viability, CellTiter-Glo; skin; 7 days).
With `CSC(=S)N/N=C(\C)c1ccc(Nc2nnc(-c3ccc(Cl)cc3)c3ccccc23)cc1` the viability was 10.4% (MCF7; cell growth or viability, MTT; 2.5 µM, 24 h).
`O=[C]=[Mn-2]12(=[C]=O)(=[C]=O)[O]c3cc4c(cc3=[N+]1CCc1ccccc1)[O][Mn-2](=[C]=O)(=[C]=O)(=[C]=O)([N+]=4CCc1ccccc1)[n+]1ccc(cc1)C(=O)Nc1ccccc1NC(=O)c1cc[n+]2cc1` gave a viability reduction of 65% (HCT-15; MTT; 50 µM, 48 h, photolysed compound).
The fold regulation of `CCN(CC)CC(=O)Nc1cccc(-n2cc(-c3ccc4ccc(-c5cn(-c6cccc(NC(=O)CN(CC)CC)c6)nn5)cc4c3)nn2)c1` is reported as -1.06 (RCC4; PCR angiogenesis array, refers to: PECAM1; 5 x IC50, 2 h, normoxia; baseline: untreated).
With `CCOC(=O)c1ccc(NC(=O)C(C#N)=C2C(=O)c3ccccc3C2=O)cc1` the viability was 50% (HepG2; cell growth or viability, MTT; 25 µM, 24 h).
For `C1=[N+]2CCCC[N+]3=Cc4ccc5[n]4[Au-]23[n]2c1ccc2-c1nc2ccccc2nc1-5.F[P-](F)(F)(F)(F)F`, the TGI was 4 -log M (HOP-92; NCI60 five-dose screen).
For `COc1ccc(NC(=O)c2ccc3[nH]c(-c4ccc(N(C)C)cc4)nc3c2)cn1`, the reporter activity was 2.51 (HCT-116; refers to: NFkB-luc luciferase reporter; concentration not given, unit not given; baseline: DMSO).
With `N#Cc1cccc(/C=C/C(=O)c2ccc(O)cc2)c1` the fold change was 53.2 (U-87 MG; refers to: ARAP2; concentration not given; baseline: untreated).
`Cn1ncc2cc(-c3cncc(Cl)c3N3CCC4(CCNC4=O)CC3)ccc21`: “log2 fold change” 2.85 (LS174T; gene expression, microarray, refers to: CMBL mRNA; concentration not given, 4 h; baseline: untreated cells).
For `CNS(=O)(=O)Nc1nccc(Cc2c(C)c3ccc(Oc4ncccc4F)cc3oc2=O)c1F`, the IC50 was over 1 µM (NKM-1; cell viability, CellTiter-Glo; 7 days).
The lipid content of `COc1ccc(CSC2C3=C(CCCC3=O)Oc3ccc(Br)cc32)cc1` (centres unmarked) is reported as 0.956 OD492 (3T3-L1 preadipocytes; adipogenesis, Oil Red O staining; IC20, 14 days, single replicate).
For `Cc1ncsc1-c1ccc(C(C)NC(=O)C2CC(O)CN2C(=O)C(NC(=O)CCCCCCCCCCN2CCCC(Nc3ncc(Cl)c(Nc4ccccc4S(=O)(=O)C(C)C)n3)C2)C(C)(C)C)cc1` (centres unmarked), “log2 fold change” read -1.03 (22Rv1; RNA-seq, refers to: SOX13 mRNA; concentration not given; baseline: DMSO).
Under “mean growth percent”, `O=C(C[Se]C(=O)c1cc2ccccc2s1)Nc1cccc(C(F)(F)F)c1` is recorded as -80.6% (NCI60 melanoma subpanel; cell growth; 10 µM, 48 h, one-dose).
`CN(C)C(=O)c1ccnc(N2Cc3cn(Cc4cc(Cl)cc(Cl)c4)nc3C2)n1` has an IC50 of 0.068 µM (HEK293 expressing GluA1 and GluA2; glutamate excitotoxic cell death, CellTox Green; added: glutamate).
For `O=C(C[Se]C(=O)C12CC3CC(CC(C3)C1)C2)Nc1cccc(C(F)(F)F)c1`, the mean TGI was 9.04 µM (NCI60 melanoma subpanel; total growth inhibition, inhibitor; five-dose).
Under “log2 fold change”, `CN1CCCNC(=O)c2cccc(c2)C(=O)NCCCN(C)CCCNc2cccc3c2C(=O)c2cccc(c2C3=O)NCCC1` is recorded as -3.39 (SAS; RNA-Seq, refers to: WDR61 mRNA; 1 µM, 24 h; baseline: untreated cells).
`COCCCCCNc1nc(NCCCCCCN(C)C)c2cc(NC(=O)/C=C/CN(C)C)ccc2n1` has a viability of 1.08 and 1.01 and 0.818 (MCF7; CellTiter-Glo; 0.3906 µM, 72 h, unit not given; baseline: DMSO-treated cells).
`CC(C)Cc1ccc(C(C)C(=O)[Se]CC(=O)Nc2cccc(C(F)(F)F)c2)cc1` (centres unmarked) has a mean TGI of 3.53 µM (NCI60 CNS subpanel; NCI60 five-dose screen).
The inhibition of `C=CC(=O)Nc1cc(Nc2nccc(-c3c(-c4ccc5c(c4)OCO5)n(C)c4ccccc34)n2)c(OC)cc1N(C)CCN(C)C` is reported as 73.2% (NCI-H1975; cell growth or viability, MTT; 0.5 µM, 72 h).
`C=CC(=O)N1[C@@H](c2ccc3c(c2)OCO3)c2[nH]c3ccccc3c2C[C@H]1C(=O)NC1CC1` — result for “mean neuron degeneration”: 82.9% (rat DRG neurons; 0.01372 µM, 48 h, added: vincristine 40 nM).
The GI50 of `O=C(C[Se]C(=O)c1cc2ccccc2[nH]1)Nc1cccc(C(F)(F)F)c1` is reported as 1.5 µM (NCI60 leukaemia subpanel; NCI60 five-dose screen).
`COc1cc(N(C)CCN(C)C)c(NC(=O)/C=C/c2c3ccccc3cc3ccccc23)cc1Nc1nccc(-c2cn(C)c3ccccc23)n1` gave an inhibition of 63.4% (NCI-H1975; cell growth or viability, MTT; 0.5 µM, 72 h).
The mRNA level of `CCc1n(CC(=O)O[C@@H]2C[C@H](C)CC[C@H]2C(C)C)c2ccccc2[n+]1C` is reported as 2.61 (HTS cells (mouse); gene microarray, refers to: SLC7A3; 1 µM, 6 h, unit not given; baseline: untreated).
`O=C(C[Se]C(=O)c1ccc2ccccc2c1)Nc1cccc(C(F)(F)F)c1` — result for “mean growth percent”: -91.6% (NCI60 CNS subpanel; cell growth; 10 µM, 48 h, one-dose).
The inhibition of `C=CC(=O)Nc1cc(Nc2nccc(-c3c(-c4cccc(C)c4)n(C)c4ccccc34)n2)c(OC)cc1N(C)CCN(C)C` is reported as 42.2% (NCI-H1975; cell growth or viability, MTT; 0.5 µM, 72 h).
The IC50 of `CN(C)C(=O)c1cccc(N2Cc3cn(Cc4ccc(F)cc4F)nc3C2)c1` is reported as 0.003 µM (HEK293 expressing GluA1 and GluA2; glutamate excitotoxic cell death, CellTox Green; added: glutamate).
`COc1cc(N(C)CCN(C)C)c(NC(=O)/C=C/c2ccc(F)cc2)cc1Nc1nccc(-c2cn(C)c3ccccc23)n1` has an inhibition of 62.9% (NCI-H1975; cell growth or viability, MTT; 0.5 µM, 72 h).
With `[Cl-].[Cl-].[Ru+2].c1ccc(-c2ccccn2)nc1.c1ccc(-c2ccccn2)nc1.c1ccc2cc3nc4c5cccnc5c5ncccc5c4nc3cc2c1` the TGI was 0.136 µM (SK-MEL-28; cell growth, SRB; cool white visible light, normoxia).
`COC(=O)C1=C(C)Oc2ccc(Br)cc2C1C(C(C)=O)C(=O)OC` (centres unmarked) gave a lipid content of 0.721 OD492 and 0.797 OD492 and 0.695 OD492 (3T3-L1 preadipocytes; adipogenesis, Oil Red O staining; IC20, 14 days, single replicate).
`O=C(NO)c1cnc(NC2(c3cccc(F)c3)CCCCC2)nc1`: “cellular tracer uptake” “increased” (U87 and MDA-MB-231; inhibitor; 100 µM, added: [11C]HSP990 pre-incubation).
The mean TGI of `CC(=O)Oc1ccccc1C(=O)[Se]CC(=O)Nc1cccc(C(F)(F)F)c1` is reported as 48.5 µM (NCI60 leukaemia subpanel; NCI60 five-dose screen).
`CC1(C)CC[C@@]2(CO)C(=C3C=C[C@@H]4[C@@]5(C)CC[C@H](O)[C@@](C)(CO)[C@@H]5CC[C@@]4(C)[C@]3(C)C[C@@H]2O)C1` — result for “relative ROS fluorescence”: 1.04 and 0.527 and 1.54 (HepG2, control siRNA; flow cytometry; concentration not given, high dose; baseline: control cells).
`O=C(C[Se]C(=O)c1ccc2ccccc2n1)Nc1cccc(C(F)(F)F)c1`: “mean growth percent” -84.4% (NCI60 melanoma subpanel; cell growth; 10 µM, 48 h, one-dose).
For `CC(=O)Nc1ccnc(N2Cc3cnn(Cc4ccc(F)cc4)c3C2)n1`, the IC50 was 0.04 µM (HEK293 expressing GluA1 and GluA2; glutamate excitotoxic cell death, CellTox Green; added: glutamate).
`CCCCCCc1cccc([C@H](O)C[C@H](CO)NC(=O)CCCCCCCCCCBr)c1` gave a sphingomyelin level of 69300 pmol/sample and 68400 pmol/sample and 51400 pmol/sample (HeLa; CERT activity, HPLC-MS/MS lipidomics, refers to: sphingomyelin 24; 1 µM, 24 h, not cell-number normalised).
`COC(=O)c1cc(NC2=NC(=O)C(=Cc3ccc(N(C)C)cc3)S2)ccc1OC(C)=O` has a metabolite level of -1.71 fold change (MCF7; GC-MS, refers to: Cycloserine; 1 µM; baseline: DMSO).
